Experimental data collected from several papers.
Organism: Escherichia coli

CC(C)Oc1c(NC(=O)c2ccc(NC(=O)C(CC(N)=O)NC(=O)c3cc(F)c(N=Nc4c(F)cccc4F)c(F)c3)cc2)ccc(C(=O)NN=Cc2ccc(C(=O)O)cc2)c1O (centres unmarked)  MIC (BW25113; after 1 h irradiation at 450 nm): > 6.4 µg/mL
CC[C@H](C)[C@H](NC(=O)[C@@H](CCCNC(=N)N)NC(=O)[C@H](CCCNC(=N)N)NC(=O)[C@@H]1CCCN1C(=O)[C@@H]1CCCN1C(=O)[C@H](CCCNC(=N)N)NC(=O)[C@@H]1CCCN1C(=O)[C@H](CCCNC(=N)N)NC(=O)[C@@H]1CCCN1C(=O)[C@H](CC(C)C)NC(=O)[C@H](Cc1ccc(O)cc1)NC(=O)[C@@H]1CCCN1C(=O)[C@@H]1CCCN1C(=O)[C@H](CCCCN)NC(=O)[C@H](CCCNC(=N)N)NC(=O)[C@@H](N)C(C)C)C(=O)N[C@@H](Cc1ccc(O)cc1)C(=O)N[C@@H](CC(N)=O)C(=O)N[C@H](CCCNC(=N)N)C(N)=O  MIC (broth microdilution; MC4100; 18 h, 37 °C, 25% MHB2): 8 µg/mL
CC[C@H](C)[C@H](N)C(=O)N[C@@H](CCCNC(=N)N)C(=O)N[C@H](C(=O)N[C@@H](Cc1c[nH]c2ccccc12)C(=O)N[C@@H](Cc1ccccc1)C(=O)N[C@H](C(=O)N[C@@H](CCCCN)C(=O)N[C@H](C(=O)N[C@@H](CCCNC(=N)N)C(=O)N[C@@H](CCCCN)C(=O)N[C@@H](CCSC)C(=O)N[C@@H](CCCCN)C(=O)N[C@@H](C)C(=O)N[C@H](C(=O)N[C@@H](Cc1ccc(O)cc1)C(=O)N[C@@H](Cc1c[nH]cn1)C(N)=O)[C@@H](C)CC)C(C)C)[C@@H](C)CC)C(C)C  MIC (broth dilution; ATCC 25922, Mueller-Hinton broth; 24 h, 37 °C): 50 µM
CC[C@H](C)[C@H](NC(=O)[C@@H](CCCNC(=N)N)NC(=O)[C@H](CCCNC(=N)N)NC(=O)[C@H](C)NC(=O)[C@H](Cc1c[nH]c2ccccc12)NC(=O)[C@H](CCCNC(=N)N)NC(=O)[C@@H]1CCCN1C(=O)[C@H](CCCNC(=N)N)NC(=O)[C@@H]1CCCN1C(=O)[C@H](CC(C)C)NC(=O)[C@H](Cc1ccc(O)cc1)NC(=O)[C@@H]1CCCN1C(=O)[C@@H]1CCCN1C(=O)[C@H](CCCCN)NC(=O)[C@H](CC(=O)O)NC(=O)[C@@H](N)C(C)C)C(=O)N[C@@H](Cc1ccc(O)cc1)C(=O)N[C@@H](CC(N)=O)C(=O)N[C@H](CCCNC(=N)N)C(N)=O  MIC (broth microdilution; MC4100; 18 h, 37 °C, 25% MHB2): 16 µg/mL
CC(C)C[C@@H](NC(=O)[C@H](NC(=O)[C@@H](CCCCN)NC(=O)[C@@H](CCCCN)NC(=O)[C@@H](CC(C)C)NC(=O)[C@@H](Cc1c[nH]c2ccccc12)NC(=O)[C@@H](CCCCN)NC(=O)[C@@H](Cc1c[nH]c2ccccc12)NC(=O)[C@@H](CC(C)C)NC(=O)[C@@H](CCCCN)NC(=O)[C@@H](CCCCN)NC(=O)[C@H](N)C(C)C)C(C)C)C(N)=O  MIC (24 h, 37 °C, Mueller-Hinton broth, NaCl 150 mM): 8 µM
CN[C@@H]1[C@H](O)[C@H](NC)[C@H]2O[C@]3(O)[C@H](O[C@@H]2[C@H]1O)O[C@H](C)C[C@H]3NC(=O)Cc1ccccc1  MIC (microbial growth, broth dilution; K12): > 200 µg/mL
CC[C@H](C)[C@@H]1NC(=O)CNC(=O)[C@H](CCCNC(=N)N)NC(=O)[C@H](Cc2ccc(O)cc2)NC(=O)[C@@H]2CSSC[C@H](NC1=O)C(=O)N[C@@H](Cc1ccc(O)cc1)C(=O)N[C@@H](CCCNC(=N)N)C(=O)N[C@@H](CCCCN)C(=O)N[C@H](C(=O)N[C@@H](CCCNC(=N)N)C(N)=O)CSSC[C@H](NC(=O)[C@H](Cc1c[nH]c3ccccc13)NC(=O)[C@@H](N)CCCNC(=N)N)C(=O)N[C@@H](Cc1ccccc1)C(=O)N[C@@H](CCCNC(=N)N)C(=O)N[C@@H](C(C)C)C(=O)N2  MIC (broth dilution; K12 BW25113, Mueller-Hinton II broth; 18 h, 37 °C): 3.91 µg/mL
CC[C@H](C)[C@H](NC(=O)[C@@H](CCCNC(=N)N)NC(=O)[C@H](CCCNC(=N)N)NC(=O)[C@@H]1CCCN1C(=O)[C@@H]1CCCN1C(=O)[C@H](CCCNC(=N)N)NC(=O)[C@@H]1CCCN1C(=O)[C@H](CCCNC(=N)N)NC(=O)[C@@H]1CCCN1C(=O)[C@H](CC(C)C)NC(=O)[C@H](Cc1c[nH]cn1)NC(=O)[C@@H]1CCCN1C(=O)[C@@H]1CCCN1C(=O)[C@H](CCCCN)NC(=O)[C@H](CC(=O)O)NC(=O)[C@@H](N)C(C)C)C(=O)N[C@@H](Cc1ccc(O)cc1)C(=O)N[C@@H](CC(N)=O)C(=O)N[C@H](CCCNC(=N)N)C(N)=O  MIC (broth microdilution; MC4100; 18 h, 37 °C, 25% MHB2): 4 µg/mL
OB(O)c1cnn(-c2cc(Cl)ncn2)c1  MIC (bacterial growth; TEM-3 ESBL clinical isolate; without cefotaxime): 1020 µg/mL
O=C(c1ccccc1O)c1[nH]c(Cl)c(Cl)c1-n1c(C(=O)c2ccccc2O)cc(Cl)c1Cl  MIC (microbial growth; K12, MG1655): > 64 µM
CO[C@@H](C(N)=O)[C@H](NC(=O)c1ccc(NC(=O)[C@@H](N)Cc2ccc(O)cc2)cc1)C(=O)Nc1ccc(C(=O)Nc2ccc(C(=O)Nc3ccc(C(=O)O)c(O)c3OC(C)C)c(O)c2OC(C)C)cc1  MIC (empty cosmid vector; 16 h, 37 °C): 0.5 µg/mL
CC[C@H](C)[C@H](NC(=O)[C@H](CC(C)C)NC(=O)[C@H](CCCNC(=N)N)NC(=O)CNC(=O)CNC(=O)[C@H](CCCCN)NC(=O)[C@H](CCCNC(=N)N)NC(=O)[C@H](CC(C)C)NC(=O)[C@H](CC(C)C)NC(=O)[C@H](CCCNC(=N)N)NC(=O)[C@@H](NC(=O)[C@H](CC(C)C)NC(=O)[C@@H](N)CO)[C@@H](C)O)C(=O)NCC(=O)N[C@@H](Cc1c[nH]c2ccccc12)C(=O)N[C@@H](CCCNC(=N)N)C(=O)N[C@@H](Cc1c[nH]c2ccccc12)C(=O)N[C@@H](CCC(=O)O)C(=O)N[C@@H](CCCCN)C(=O)N[C@H](C(=O)N[C@@H](CCCNC(=N)N)C(=O)N[C@@H](CC(N)=O)C(=O)N[C@@H](Cc1c[nH]c2ccccc12)C(=O)N[C@H](C(=O)N[C@@H](CCCNC(=N)N)C(=O)N[C@@H](CCCNC(=N)N)C(=O)N[C@H](C(=O)N[C@H](C(=O)N[C@@H](CCC(=O)O)C(=O)N[C@@H](CCCCN)C(=O)N[C@@H](CCCNC(=N)N)C(=O)N[C@@H](CCCCN)C(=O)N1CCC[C@H]1C(=O)N[C@@H](CC(N)=O)C(=O)N[C@@H](CCCCN)C(=O)O)[C@@H](C)CC)[C@@H](C)CC)[C@@H](C)CC)[C@@H](C)O  MIC (broth microdilution; K88): 0.94 log10 µg/mL
CC[C@H](C)[C@@H]1NC(=O)[C@H](C(C)C)NC(=O)[C@H](C(C)C)NC(=O)[C@H](CC(C)C)NC(=O)C[C@@H](C(=O)N[C@@H](Cc2c[nH]c3ccccc23)C(=O)N[C@@H](CC(N)=O)C(=O)N[C@@H](C)C(=O)N2CCC[C@H]2C(=O)NCC(=O)N[C@@H](Cc2c[nH]c3ccccc23)C(=O)N[C@@H](Cc2ccccc2)C(=O)O)NC(=O)[C@H](C)NC(=O)[C@H](CCC(N)=O)NC(=O)[C@H](C(C)C)NC1=O  MIC (ATCC 25922): > 32 µg/mL
c1ccc(CCNC2CCCc3c2[nH]c2ccc(C4CCCCC4)cc32)cc1 (centres unmarked)  MIC (broth microdilution; MB5746 efflux-deficient hyperpermeable): 2 µg/mL
CCCC[C@H](NC(=O)[C@H](Cc1ccc(O)cc1)NC(=O)[C@@H]1CCCN1C(=O)[C@@H]1CCCN1C(=O)[C@H](CCCCN)NC(=O)[C@H](CC(=O)O)NC(=O)[C@@H](N)C(C)C)C(=O)N1CCC[C@H]1C(=O)N[C@@H](CCCNC(=N)N)C(=O)N1CCC[C@H]1C(=O)N[C@@H](CCCNC(=N)N)C(=O)N1CCC[C@H]1C(=O)N1CCC[C@H]1C(=O)N[C@@H](CCCNC(=N)N)C(=O)N[C@H](CCCNC(=N)N)C(=O)N[C@H](C(=O)N[C@@H](Cc1ccc(O)cc1)C(=O)N[C@@H](CC(N)=O)C(=O)N[C@H](CCCNC(=N)N)C(N)=O)[C@@H](C)CC  MIC (broth microdilution; BW25113; 18 h, 37 °C, 25% MHB2): 8 µg/mL
CCCCCCCC(=O)N[C@@H](CCN)C(=O)N[C@H](C(=O)N[C@@H](CCN)C(=O)N[C@H]1CCNC(=O)[C@H]([C@@H](C)O)NC(=O)[C@H](CCN)NC(=O)[C@H](CCN)NC(=O)[C@H](Cc2ccccc2)NC(=O)[C@@H](CCCc2ccccc2)NC(=O)[C@H](CCN)NC1=O)[C@@H](C)O  MIC (broth microdilution; ATCC 25922, colistin-susceptible): 0.25 to 0.5 µg/mL
C=CCO/N=C(\C(=O)N[C@@H]1C(=O)N(OS(=O)(=O)O)C1(C)C)c1nsc(N)n1  MIC (agar dilution; 08-85, mcr-1): 2 µg/mL
CC[C@H](C)[C@H](NC(=O)[C@@H](NC(=O)[C@H](CCCCN)NC(=O)[C@H](CCC(N)=O)NC(=O)[C@@H](NC(=O)[C@H](Cc1c[nH]c2ccccc12)NC(=O)[C@H](CCCCN)NC(=O)[C@H](CCCCN)NC(=O)[C@H](CC(C)C)NC(=O)[C@H](CCCNC(=N)N)NC(=O)[C@H](Cc1ccccc1)NC(=O)[C@@H](N)C(C)C)[C@@H](C)CC)C(C)C)C(N)=O  MIC (24 h, 37 °C, Mueller-Hinton broth, CaCl2 2.5 mM): 128 µM
CC[C@H](C)[C@H](NC(=O)[C@@H](CCCNC(=N)N)NC(=O)[C@H](CCCNC(=N)N)NC(=O)[C@@H]1CCCN1C(=O)[C@@H]1CCCN1C(=O)[C@H](Cc1c[nH]cn1)NC(=O)[C@@H]1CCCN1C(=O)[C@H](CCCNC(=N)N)NC(=O)[C@@H]1CCCN1C(=O)[C@H](CC(C)C)NC(=O)[C@H](Cc1ccc(O)cc1)NC(=O)[C@@H]1CCCN1C(=O)[C@@H]1CCCN1C(=O)[C@H](CCCCN)NC(=O)[C@H](CC(=O)O)NC(=O)[C@@H](N)C(C)C)C(=O)N[C@@H](Cc1ccc(O)cc1)C(=O)N[C@@H](CC(N)=O)C(=O)N[C@H](CCCNC(=N)N)C(N)=O  MIC (broth microdilution; MC4100; 18 h, 37 °C, 25% MHB2): 8 µg/mL
C=C1NC(=O)C2C[S+]([O-])CC3NC(=O)C(CSC(C)C(NC(=S)C(Cc4cnc[nH]4)NC(=O)c4csc(C(C)NC(C)=O)n4)C(=O)N[C@H](CC(C)C(=O)NC(=O)CC(C(=O)O)NC(=O)C(C)NC3=O)C(=O)N2)NC(=O)[C@@H]2CCCN2C(=O)[C@@H](CC(C)C)NC1=O (some centres unmarked)  MIC (bacterial growth; ATCC 25922): > 32 µg/mL
